# Measured values pooled from the literature.
# Every numbered part comes from another study and shows a few of its results, in no order.
# UniProt Q16832, sequence (whole entry, looked up): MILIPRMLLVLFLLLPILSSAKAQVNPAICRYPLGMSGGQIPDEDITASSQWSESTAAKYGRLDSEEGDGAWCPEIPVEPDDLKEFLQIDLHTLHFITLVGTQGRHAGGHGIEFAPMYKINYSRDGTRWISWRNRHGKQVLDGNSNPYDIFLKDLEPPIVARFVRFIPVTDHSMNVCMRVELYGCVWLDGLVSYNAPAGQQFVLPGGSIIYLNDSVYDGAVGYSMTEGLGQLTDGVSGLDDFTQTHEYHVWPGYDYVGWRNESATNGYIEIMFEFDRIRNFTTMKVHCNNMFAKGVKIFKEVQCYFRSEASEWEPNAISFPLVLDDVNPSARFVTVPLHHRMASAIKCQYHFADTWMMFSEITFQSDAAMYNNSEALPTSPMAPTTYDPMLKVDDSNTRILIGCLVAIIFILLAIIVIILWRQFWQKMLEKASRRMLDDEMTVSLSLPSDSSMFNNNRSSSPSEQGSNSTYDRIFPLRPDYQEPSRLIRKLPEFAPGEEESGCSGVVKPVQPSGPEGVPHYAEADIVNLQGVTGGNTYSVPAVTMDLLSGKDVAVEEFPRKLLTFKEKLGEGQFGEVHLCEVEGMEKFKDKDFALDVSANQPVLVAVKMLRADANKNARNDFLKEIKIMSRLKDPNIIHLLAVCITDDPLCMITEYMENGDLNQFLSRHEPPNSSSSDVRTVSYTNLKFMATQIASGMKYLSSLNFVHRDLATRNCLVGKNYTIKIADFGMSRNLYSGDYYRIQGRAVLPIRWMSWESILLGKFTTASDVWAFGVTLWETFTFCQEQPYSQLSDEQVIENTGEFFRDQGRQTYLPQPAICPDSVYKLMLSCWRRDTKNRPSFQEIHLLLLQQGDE

# Series 1 — observed: enzyme activity; action: inhibitor; concentration: 0.5 µM; reference: control
# Target: Phosphorylase b kinase gamma catalytic chain, liver/testis isoform (PHKG2, Homo sapiens, UniProt P15735)
# UniProt P15735, sequence (whole entry, looked up): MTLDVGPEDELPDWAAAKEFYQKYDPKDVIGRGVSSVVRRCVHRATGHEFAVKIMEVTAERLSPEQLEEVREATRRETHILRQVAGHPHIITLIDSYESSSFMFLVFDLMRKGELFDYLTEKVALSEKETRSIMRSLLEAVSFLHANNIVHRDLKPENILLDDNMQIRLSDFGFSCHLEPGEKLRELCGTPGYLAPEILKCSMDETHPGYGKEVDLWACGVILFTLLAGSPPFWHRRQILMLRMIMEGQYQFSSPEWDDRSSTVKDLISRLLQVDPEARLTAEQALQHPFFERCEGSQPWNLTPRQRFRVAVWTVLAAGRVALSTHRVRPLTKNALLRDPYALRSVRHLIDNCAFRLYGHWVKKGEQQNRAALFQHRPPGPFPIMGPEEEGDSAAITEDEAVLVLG
Structure (SMILES),remaining activity
Nc1nc(Nc2ccc(S(N)(=O)=O)cc2)nn1C(=S)Nc1c(F)cccc1F,95.5%
C[C@@H](N)[C@H]1CC[C@H](C(=O)Nc2ccncc2)CC1,95.7%
O=Nc1c(-c2c(O)[nH]c3ccccc23)[nH]c2ccccc12,60.7%
COc1cc2c(N3CCN(C(=O)Nc4ccc(OC(C)C)cc4)CC3)ncnc2cc1OCCCN1CCCCC1,98.9%
O=C1NC(=O)/C(=C/c2ccc3c(c2)OC(F)(F)O3)S1,95.2%
N#CC(c1ccnc(NCCc2cccnc2)n1)c1nc2ccccc2s1 (centres unmarked),99.5%
CCCCc1c(-c2ccc(O)cc2)[nH]c2nccnc12,100%
CCN(CC)CCCCN1c2ccccc2Oc2ccc(Cl)cc21,110%
O=C(c1ccccc1)c1ccc(N2CCOCC2)cc1O,101%
O=C(O)/C=C/c1cc(Br)c(Br)c(Br)c1Br,98.9%
NC(=O)c1ccc(-c2nc(-c3ccc4c(c3)OCCO4)c(-c3ccccn3)[nH]2)cc1,97.3%
NC(=O)c1cccc(-c2cc(Nc3ccc(OC(F)(F)F)cc3)ncn2)c1,103%
c1cc(-c2cnn3cc(-c4ccc(OCCN5CCCCC5)cc4)cnc23)ccn1,31.2%
CC(C)(C)c1nc2c3cc[nH]c(=O)c3c3cc(F)ccc3c2[nH]1,57.3%
FC(F)(F)c1ccc(/C=C/c2nc(COc3ccc(CCCCn4ccnn4)cc3)co2)cc1,93.5%
O=C1c2ccccc2-c2nc3nnnn3nc21,96.1%
CNc1cc2c(Nc3cccc(Br)c3)ncnc2cn1,113%
CC(C)n1cnc2c(Nc3cccc(Cl)c3)nc(NCCO)nc21,93.2%
CC(C)N(CCC(=O)c1ccc2ccccc2c1)Cc1ccccc1,99.9%
N#C/C(=C(/N)SC1C=CC=CC1)c1cccc(C(O)c2ccncc2)c1 (centres unmarked),101%
O=c1c(-c2ccc(F)cc2)c(-c2ccncc2)[nH]n1-c1ccc(Cl)cc1,121%

# Series 2 — observed: RNA clamping; technique: fluorescence polarization; concentration: concentration not given; added: FAM-labelled poly r(AG)8 RNA; reading: higher = more clamping
# Target: Eukaryotic initiation factor 4A-I (EIF4A1, Homo sapiens, UniProt P60842)
# UniProt P60842, sequence (whole entry, looked up): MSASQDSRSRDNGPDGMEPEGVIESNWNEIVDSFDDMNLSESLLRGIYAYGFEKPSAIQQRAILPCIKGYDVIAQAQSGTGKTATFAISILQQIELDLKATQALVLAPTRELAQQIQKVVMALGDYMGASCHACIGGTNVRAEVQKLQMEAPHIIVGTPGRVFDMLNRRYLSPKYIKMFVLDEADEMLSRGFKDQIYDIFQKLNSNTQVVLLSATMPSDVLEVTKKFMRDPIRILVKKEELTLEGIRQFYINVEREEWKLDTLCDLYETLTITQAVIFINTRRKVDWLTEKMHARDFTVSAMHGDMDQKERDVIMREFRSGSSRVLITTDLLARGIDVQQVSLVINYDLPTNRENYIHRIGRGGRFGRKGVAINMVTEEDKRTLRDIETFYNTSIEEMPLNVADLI
SMILES,fluorescence polarization change
CONC(=O)[C@H]1[C@@H](O)[C@@]2(O)c3c(OC)cc(O)cc3O[C@@]2(c2ccc(Br)cc2)[C@@H]1c1ccccc1,73.8 mP
COC(=O)/C=C/Cn1c(-c2ccccc2)nc2c(c1=O)[C@@H](c1ccccc1)[C@]1(c3ccc(OC)cc3)Oc3cc(OC)cc(OC)c3[C@]21O,9.1 mP
COc1ccc([C@H]2[C@H](C(=O)N(C)C)[C@@H](O)[C@@]3(O)c4c(OC)cc(OC)cc4O[C@@]23c2ccc(OC)cc2)cc1,7 mP
COc1cc(OC)c2c(c1)O[C@@]1(c3ccc(OC)c(O)c3)[C@H](c3ccccc3)[C@@H](C(=O)N(C)OC)[C@@H](O)[C@@]21O,69.5 mP
COc1ccc([C@@]23Oc4cc(OC)cc(OC)c4[C@]2(O)[C@H](O)[C@H](C(=O)c2ccco2)[C@H]3c2cccc(OC)c2)cc1,21.5 mP
COC(=O)/C=C/Oc1nc(-c2ccccc2)nc2c1[C@@H](c1ccccc1)[C@]1(c3ccc(OC)cc3)Oc3cc(OC)cc(OC)c3[C@]21O,-7.5 mP
COc1ccc([C@@]23Oc4cc(OC)cc(OC)c4[C@]2(O)c2[nH]nc(O)c2[C@H]3c2ccccc2)cc1,33.4 mP
COC(=O)[C@H]1C(=O)[C@@]2(OC)c3c(OC)cc(OC)cc3O[C@@]2(c2ccc(OC)cc2)[C@@H]1c1ccccc1,9.3 mP
COc1ccc([C@@]23Oc4cc(OC)cc(OC)c4[C@]2(O)[C@H](O)[C@H](C(=O)c2ccco2)[C@H]3c2ccc(Br)cc2)cc1,11.7 mP
COC(=O)[C@H]1C(=O)[C@@]2(NCc3cccnc3)c3c(OC)cc(OC)cc3O[C@@]2(c2ccc(OC)cc2)[C@@H]1c1ccccc1,-9.1 mP
COC(=O)[C@@H]1[C@@H](c2ccccc2)[C@]2(c3ccc(OC)cc3)Oc3cc(OC)cc(OC)c3[C@@]23NC(c2ccc(OC)cc2)=N[C@@]13O,43.6 mP

# Series 3 — host: human; medium: microsomes or S9; concentration: 2 µM; time: 0.5 h
SMILES,remaining compound [%]
COC(=O)c1ccc(C)c(NC(=O)CN(C)Cc2ccc(Cl)s2)c1,1.04
COc1c(C(C)(C)C)cc(C(=O)COc2ccc(O)cc2)c(O)c1I,> 99
NC1=NC(c2ccc(Cl)cc2)N2C(=N1)N=C(O)c1ccccc12 (centres unmarked),95.1
Cc1ccc(C)c(NC(=O)N2CCc3[nH]cnc3C2)c1,96
CCC(C)NCc1ccccc1-c1ccc(S(C)(=O)=O)cc1 (centres unmarked),96.5
Cn1c(CN2CCc3ccccc3C2)cc(=O)c(O)c1CN1CCOC(c2ccccc2)C1 (centres unmarked),79.2
NC(N)=Nc1nc(-c2cc3ccccc3o2)cs1,24.9
Cc1csc(N2N=C(c3ccccc3)CC2c2ccccc2C)n1 (centres unmarked),51
CCCNC(=O)c1cn(-c2cc(-c3nc(C(C)(C)C)no3)ccn2)cn1,66.7
Cc1cc(C)c2c(c1)C(Nc1ncc(S(N)(=O)=O)s1)CCO2 (centres unmarked),70.3
O=C(CNC(=O)Cc1ccccc1)NCC(=O)OCc1cccc(C(=O)c2ccccc2)c1,7.74

# Mixed results
Structure (SMILES),target,observed,technique,measurement,value
Cc1cc(C)c(-n2ccn3nc(-c4cccnc4)cc23)cc1NC(=O)c1cc(C#N)cc(S(F)(F)(F)(F)F)c1,"Discoidin domain-containing receptor 2 (DDR2, Homo sapiens, UniProt Q16832)",target engagement in cells,BRET,IC50,4.5 nM

# Repeated from above (series 3):
SMILES,remaining compound [%]
Cc1ccc(C)c(NC(=O)N2CCc3[nH]cnc3C2)c1,96
CCC(C)NCc1ccccc1-c1ccc(S(C)(=O)=O)cc1 (centres unmarked),96.5
Cn1c(CN2CCc3ccccc3C2)cc(=O)c(O)c1CN1CCOC(c2ccccc2)C1 (centres unmarked),79.2
NC(N)=Nc1nc(-c2cc3ccccc3o2)cs1,24.9
Cc1csc(N2N=C(c3ccccc3)CC2c2ccccc2C)n1 (centres unmarked),51
CCCNC(=O)c1cn(-c2cc(-c3nc(C(C)(C)C)no3)ccn2)cn1,66.7
